Assay results from different studies.
Each line is one published result; not all experiments were run side by side. Several values in a cell are separate wells, animals, samples, runs or records. ± gives the spread as reported. ≈ marks a conversion by molar mass, not a printed value.
Chain of UniProt Q14204 (whole entry, looked up): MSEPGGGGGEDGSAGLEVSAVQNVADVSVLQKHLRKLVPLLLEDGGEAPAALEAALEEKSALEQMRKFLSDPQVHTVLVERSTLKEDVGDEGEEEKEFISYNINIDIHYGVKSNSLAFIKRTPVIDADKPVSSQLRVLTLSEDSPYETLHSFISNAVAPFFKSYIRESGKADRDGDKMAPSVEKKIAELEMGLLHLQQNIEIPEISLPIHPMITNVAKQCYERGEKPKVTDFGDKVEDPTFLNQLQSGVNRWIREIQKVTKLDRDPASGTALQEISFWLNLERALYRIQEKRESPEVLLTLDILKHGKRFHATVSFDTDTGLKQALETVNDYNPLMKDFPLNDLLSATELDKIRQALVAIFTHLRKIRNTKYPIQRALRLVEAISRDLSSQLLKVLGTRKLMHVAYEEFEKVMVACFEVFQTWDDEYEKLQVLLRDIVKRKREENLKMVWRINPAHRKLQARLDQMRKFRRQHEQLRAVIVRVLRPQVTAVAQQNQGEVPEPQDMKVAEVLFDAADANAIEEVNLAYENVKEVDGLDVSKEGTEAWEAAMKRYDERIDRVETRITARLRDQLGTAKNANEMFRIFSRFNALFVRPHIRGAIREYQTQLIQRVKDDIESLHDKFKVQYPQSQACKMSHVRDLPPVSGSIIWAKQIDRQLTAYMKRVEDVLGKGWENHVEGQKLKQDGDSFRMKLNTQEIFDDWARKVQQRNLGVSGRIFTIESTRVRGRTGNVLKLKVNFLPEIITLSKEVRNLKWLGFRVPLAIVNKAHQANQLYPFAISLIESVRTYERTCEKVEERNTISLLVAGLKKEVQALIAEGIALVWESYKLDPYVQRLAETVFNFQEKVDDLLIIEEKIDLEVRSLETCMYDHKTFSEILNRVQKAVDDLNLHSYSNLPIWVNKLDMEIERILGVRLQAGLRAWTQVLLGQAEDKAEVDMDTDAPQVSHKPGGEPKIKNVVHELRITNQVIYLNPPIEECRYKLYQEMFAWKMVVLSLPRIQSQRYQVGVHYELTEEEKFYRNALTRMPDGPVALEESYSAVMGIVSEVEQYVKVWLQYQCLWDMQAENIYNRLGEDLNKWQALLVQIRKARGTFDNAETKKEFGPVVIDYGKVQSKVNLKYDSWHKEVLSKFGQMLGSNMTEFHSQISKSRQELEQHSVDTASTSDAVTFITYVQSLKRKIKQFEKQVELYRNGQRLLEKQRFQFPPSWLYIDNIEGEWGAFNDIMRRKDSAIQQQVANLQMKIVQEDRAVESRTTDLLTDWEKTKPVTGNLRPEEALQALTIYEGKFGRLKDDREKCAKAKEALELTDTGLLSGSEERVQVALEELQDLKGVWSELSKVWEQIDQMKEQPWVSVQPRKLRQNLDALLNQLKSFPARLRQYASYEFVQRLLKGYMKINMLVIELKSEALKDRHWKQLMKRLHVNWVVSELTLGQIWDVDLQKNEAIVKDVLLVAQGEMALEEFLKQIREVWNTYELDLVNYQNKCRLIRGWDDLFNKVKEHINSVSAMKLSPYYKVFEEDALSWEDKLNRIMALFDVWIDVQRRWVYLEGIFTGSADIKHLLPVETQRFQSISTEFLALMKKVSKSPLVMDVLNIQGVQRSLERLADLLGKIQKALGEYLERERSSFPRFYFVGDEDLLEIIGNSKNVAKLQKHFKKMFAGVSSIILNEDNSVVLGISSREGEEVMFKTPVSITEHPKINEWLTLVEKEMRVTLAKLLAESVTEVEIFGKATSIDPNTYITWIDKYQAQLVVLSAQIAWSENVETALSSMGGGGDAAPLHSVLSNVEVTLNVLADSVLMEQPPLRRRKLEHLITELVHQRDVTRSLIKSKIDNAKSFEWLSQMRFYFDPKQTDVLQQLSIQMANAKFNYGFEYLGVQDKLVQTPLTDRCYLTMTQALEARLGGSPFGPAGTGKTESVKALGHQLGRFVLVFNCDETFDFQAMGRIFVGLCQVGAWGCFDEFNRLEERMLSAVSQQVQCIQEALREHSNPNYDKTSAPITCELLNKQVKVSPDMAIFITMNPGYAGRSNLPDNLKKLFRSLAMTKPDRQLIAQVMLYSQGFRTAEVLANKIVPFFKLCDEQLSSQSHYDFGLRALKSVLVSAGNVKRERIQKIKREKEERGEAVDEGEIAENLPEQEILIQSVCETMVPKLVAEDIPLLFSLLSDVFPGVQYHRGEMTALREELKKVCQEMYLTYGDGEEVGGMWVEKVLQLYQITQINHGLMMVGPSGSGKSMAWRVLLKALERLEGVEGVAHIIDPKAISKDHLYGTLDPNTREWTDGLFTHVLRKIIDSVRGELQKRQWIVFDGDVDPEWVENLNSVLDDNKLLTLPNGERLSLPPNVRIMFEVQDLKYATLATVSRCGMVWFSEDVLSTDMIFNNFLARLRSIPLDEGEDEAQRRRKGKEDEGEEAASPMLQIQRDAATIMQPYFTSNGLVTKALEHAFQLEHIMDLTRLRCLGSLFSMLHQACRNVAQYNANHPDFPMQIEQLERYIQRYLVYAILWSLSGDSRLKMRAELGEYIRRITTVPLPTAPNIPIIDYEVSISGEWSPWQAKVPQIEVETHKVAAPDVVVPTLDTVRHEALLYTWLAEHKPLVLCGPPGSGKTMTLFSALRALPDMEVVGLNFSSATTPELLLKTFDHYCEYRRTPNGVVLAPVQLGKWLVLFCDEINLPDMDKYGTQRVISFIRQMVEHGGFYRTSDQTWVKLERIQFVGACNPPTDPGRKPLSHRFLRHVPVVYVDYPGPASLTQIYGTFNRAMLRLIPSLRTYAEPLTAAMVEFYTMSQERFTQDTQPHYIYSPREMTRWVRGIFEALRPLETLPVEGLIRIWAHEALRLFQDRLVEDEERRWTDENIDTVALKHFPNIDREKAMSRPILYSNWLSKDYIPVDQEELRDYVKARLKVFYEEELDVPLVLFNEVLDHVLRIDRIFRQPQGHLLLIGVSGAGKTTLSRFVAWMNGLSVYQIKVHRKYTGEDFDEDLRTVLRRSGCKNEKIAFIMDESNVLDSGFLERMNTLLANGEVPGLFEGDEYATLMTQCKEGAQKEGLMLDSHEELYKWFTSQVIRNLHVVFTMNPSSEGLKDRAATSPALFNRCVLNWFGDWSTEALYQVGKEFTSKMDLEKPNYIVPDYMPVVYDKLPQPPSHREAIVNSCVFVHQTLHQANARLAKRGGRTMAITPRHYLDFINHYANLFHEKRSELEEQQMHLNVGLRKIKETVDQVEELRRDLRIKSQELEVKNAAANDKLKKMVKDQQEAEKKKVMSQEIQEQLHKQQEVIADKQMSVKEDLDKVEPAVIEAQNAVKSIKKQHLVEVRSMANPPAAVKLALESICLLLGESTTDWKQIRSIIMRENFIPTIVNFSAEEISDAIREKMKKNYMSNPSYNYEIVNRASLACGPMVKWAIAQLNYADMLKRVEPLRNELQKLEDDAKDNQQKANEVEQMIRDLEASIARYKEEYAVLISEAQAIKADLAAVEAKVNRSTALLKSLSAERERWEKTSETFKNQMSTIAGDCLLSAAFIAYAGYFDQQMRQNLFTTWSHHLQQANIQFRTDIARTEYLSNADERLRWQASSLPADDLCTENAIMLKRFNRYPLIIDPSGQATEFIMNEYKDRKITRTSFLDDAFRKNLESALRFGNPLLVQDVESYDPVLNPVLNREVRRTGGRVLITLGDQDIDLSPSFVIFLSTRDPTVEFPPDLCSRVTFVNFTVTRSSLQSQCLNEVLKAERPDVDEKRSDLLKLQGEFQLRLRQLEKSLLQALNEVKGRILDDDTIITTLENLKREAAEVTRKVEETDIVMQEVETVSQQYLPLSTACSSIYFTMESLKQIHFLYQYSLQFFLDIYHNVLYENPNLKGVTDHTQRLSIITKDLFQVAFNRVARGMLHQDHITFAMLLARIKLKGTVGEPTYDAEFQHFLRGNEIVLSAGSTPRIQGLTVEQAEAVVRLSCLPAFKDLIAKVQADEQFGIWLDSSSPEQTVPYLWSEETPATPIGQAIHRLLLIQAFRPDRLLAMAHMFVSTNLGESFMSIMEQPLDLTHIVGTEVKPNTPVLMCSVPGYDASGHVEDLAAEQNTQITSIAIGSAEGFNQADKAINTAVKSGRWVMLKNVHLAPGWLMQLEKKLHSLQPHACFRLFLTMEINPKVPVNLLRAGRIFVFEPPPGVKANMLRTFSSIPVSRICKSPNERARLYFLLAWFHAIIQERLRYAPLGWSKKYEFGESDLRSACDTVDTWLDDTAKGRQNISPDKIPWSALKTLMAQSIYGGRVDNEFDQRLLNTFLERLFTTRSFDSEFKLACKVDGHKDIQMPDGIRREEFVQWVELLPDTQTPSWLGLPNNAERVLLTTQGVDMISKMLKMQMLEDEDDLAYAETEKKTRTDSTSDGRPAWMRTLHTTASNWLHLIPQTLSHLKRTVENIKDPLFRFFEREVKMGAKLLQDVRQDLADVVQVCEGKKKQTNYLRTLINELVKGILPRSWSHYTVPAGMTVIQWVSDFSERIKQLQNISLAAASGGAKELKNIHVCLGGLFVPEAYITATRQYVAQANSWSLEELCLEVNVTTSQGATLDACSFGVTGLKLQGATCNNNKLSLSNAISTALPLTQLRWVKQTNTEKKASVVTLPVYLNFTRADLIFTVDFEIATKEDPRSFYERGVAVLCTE
Chain of UniProt P24530 (whole entry, looked up): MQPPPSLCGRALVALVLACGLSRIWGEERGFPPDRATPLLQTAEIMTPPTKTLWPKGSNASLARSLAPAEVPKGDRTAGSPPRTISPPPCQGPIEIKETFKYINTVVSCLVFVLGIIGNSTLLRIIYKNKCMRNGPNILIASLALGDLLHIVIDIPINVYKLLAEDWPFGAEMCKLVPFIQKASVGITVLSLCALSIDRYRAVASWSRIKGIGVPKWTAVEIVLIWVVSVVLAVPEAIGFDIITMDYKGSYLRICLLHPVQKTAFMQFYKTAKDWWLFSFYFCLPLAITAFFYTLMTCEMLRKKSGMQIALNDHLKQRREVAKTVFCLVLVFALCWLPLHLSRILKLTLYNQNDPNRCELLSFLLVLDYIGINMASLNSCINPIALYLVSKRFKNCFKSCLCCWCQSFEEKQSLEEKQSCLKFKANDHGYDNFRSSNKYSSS

Structure (SMILES)	tested on	assay	system	conditions	scale	measurement	result
O=C(c1ccc(Cl)cc1)N1CCN2C(=O)N(OC(=O)N3CCOc4ccccc43)C(=O)C2C1 (centres unmarked)	Platelet-activating factor acetylhydrolase IB subunit alpha2 (Homo sapiens, UniProt P68402)	MS-based ABPP	SW-620 conditioned medium	10 µM, 1 h, 37 °C	reference: compound over DMSO, lower = more inhibition	median protein ratio	0.92
C[C@@H](O)[C@@H](CO)NC(=O)[C@@H](CCCNC(=N)N)NC(=O)[C@@H]1CCCN1C(=O)[C@@H]1CSSC[C@H](NC(=O)[C@H](Cc2ccccc2)NC(=O)CN2CCN(CC(=O)O)CCN(CC(=O)O)CCN(CC(=O)O)CC2)C(=O)N[C@@H](Cc2ccc(O)cc2)C(=O)N[C@@H](Cc2ccccc2)C(=O)N[C@@H](CCC(N)=O)C(=O)N[C@@H](CC(N)=O)C(=O)N1 [gallium-68 labelled]			healthy Wistar rat, spleen	intravenous, 8 MBq, 60 min, individual animals		tissue uptake	0.24 %ID/g
CCCCCOc1ccc(-c2ccc(-c3ccc(C(=O)N[C@H]4C[C@@H](O)[C@@H](OCC[N+](C)(C)C)NC(=O)[C@@H]5[C@@H](O)[C@@H](C)CN5C(=O)[C@H]([C@@H](C)O)NC(=O)[C@H]([C@H](O)[C@@H](O)c5ccc(O)cc5)NC(=O)[C@@H]5C[C@@H](O)CN5C(=O)[C@H]([C@@H](C)O)NC4=O)cc3)cc2)cc1			adult ICU patients, mITT, serum	dose not given, day 14		magnesium	0.6 mmol/L
CC(C)CC(=O)OC[C@H]1O[C@@](C#N)(c2ccc3c(N)ncnn23)[C@H](O)[C@@H]1O	ABCB1 (Homo sapiens, UniProt P08183)		Caco-2	9 µM, 2 h		Papp B to A	1.17 ×10⁻⁶ cm/s
C=CC(=O)Nc1cc(Nc2nccc(Nc3cc(Cl)c(F)cc3C(C)(C)O)n2)c(OC)cc1N1CC[C@@H](N(C)C)C1			human	oral, dose not given, phase I clinical		patients with adverse event Rash	44.1%
C[C@H]1COCCN1c1nc(NCc2cccnc2C(F)(F)F)c2cccnc2n1			conscious rat	intravenous, 10 mg/kg	reference: control	PR change	9.3%
COc1ccc(-c2c(-c3ccc(C#N)c(F)c3)nc(N3CCC(N)CC3)n(C)c2=O)cc1F		refers to: Diarrhea	human patients	oral, dose not given, any grade, dose escalation, NG		treatment-related adverse event incidence	2%
N#C[C@@]1(n2ccc(N)nc2=O)O[C@H](CO)[C@@H](O)[C@H]1O			CD-1 mouse, lung	oral, 30 mg/kg, 7 h		concentration	1620 ng/g and 731 ng/g and 882 ng/g
COc1ccc([C@@H]2CC(=O)c3c(O)cc(O)cc3O2)cc1O			Sprague-Dawley rat, male, obese, faeces	oral, 100 mg/kg neohesperidin, 48 h		cumulative faecal excretion	25200 ± 2320 ng
CC[C@H](C)[C@H](NC(=O)[C@H](Cc1ccccc1)NC(=O)[C@H](CCC(=O)O)NC(=O)[C@H](CCCNC(=N)N)NC(=O)[C@H](C)NC(=O)[C@H](C)NC(=O)[C@H](CCC(N)=O)NC(=O)[C@H](CCC(=O)O)NC(=O)[C@H](CCC(=O)O)NC(=O)[C@H](CC(C)C)NC(=O)[C@H](Cc1ccc(O)cc1)NC(=O)[C@H](CO)NC(=O)[C@H](CO)NC(=O)[C@@H](NC(=O)[C@H](CC(=O)O)NC(=O)[C@H](CO)NC(=O)[C@@H](NC(=O)[C@H](Cc1ccccc1)NC(=O)[C@@H](NC(=O)CNC(=O)[C@H](CCC(=O)O)NC(=O)[C@H](C)NC(=O)CCc1cnc[nH]1)[C@@H](C)O)[C@@H](C)O)C(C)C)C(=O)N[C@@H](C)C(=O)N[C@@H](Cc1c[nH]c2ccccc12)C(=O)N[C@@H](CC(C)C)C(=O)N[C@H](C(=O)N[C@@H](CCCNC(=N)N)C(=O)NCC(=O)N[C@@H](CCCNC(=N)N)C(=O)N[C@@H](CCCCNC(=O)COCCOCCNC(=O)COCCOCCNC(=O)CC[C@H](NC(=O)CCCCCCCCCCCCCCCCC(=O)O)C(=O)O)C(=O)NCC(=O)NCC(=O)N[C@@H](CO)C(=O)N[C@@H](CCSC)C(=O)N[C@H](C(=O)N[C@@H](CCCCNc1c(NCCCCCN(O)C(=O)CCC(=O)NCCCCCN(O)C(=O)CCC(=O)NCCCCCN(O)C(C)=O)c(=O)c1=O)C(=O)O)C(C)C)C(C)C [zirconium-89 labelled]		ex vivo gamma counting	male Sprague-Dawley rats, bone marrow	intravenous, 1 nmol, 72 h, mean of 3 animals		tissue uptake	0.39 %ID/g
COc1cc(Nc2ncc(F)c(Nc3ccc4c(n3)NC(=O)C(C)(C)O4)n2)cc(OC)c1OC	EDNRB (Homo sapiens, UniProt P24530)					IC50	> 10 µM
COc1ncccc1-c1cnn2ccc(N3CCN(C(=O)OC(C)C)CC3)nc12			mouse nerve ligation model, plasma	oral, 10 mg/kg, 30 min after last dose, repeat dosing day 5		drug concentration	3000 nM
Oc1ccc2c3c1O[C@H]1[C@@H](O)CC[C@@]4(O)[C@@H](C2)N(CC2CCC2)CC[C@]314	Probable G-protein coupled receptor 63 (GPR63, Homo sapiens, UniProt Q9BZJ6)	β-arrestin recruitment, TANGO luminescence, refers to: GPR63		concentration not given	reference: basal luminescence	log2 fold change	1.1
[Cl][212Pb][Cl]			athymic mice, C4-2 xenograft, skin	intravenous, 2 h, 212Pb-labelled		tissue uptake	0.62 %ID/g
O=C1c2c(O)c(=O)ccn2N([C@@H]2c3ccccc3SCc3c2ccc(F)c3F)[C@@H]2COCCN12			BALB/c mouse	subcutaneous, 0.25 mg/kg q12h		Cmax	18.4 ng/mL
CCC(C)(C)c1cc(-n2nc3ccccc3n2)c(O)c(C(C)(C)CC)c1			reconstructed human epidermis EpiSkin			absorption factor	94.5 %/36 h
O=C(Nc1ccccc1)C1CCN(C(=O)Oc2cccnc2)CC1		adverse event reporting	healthy women	oral, 100 mg, 9 days		subjects with ear discomfort	15.4%
CN(C)C(=O)c1cc2cnc(Nc3ccc(N4CCNCC4)cn3)nc2n1C1CCCC1		refers to: acute respiratory failure	HR+/HER2− advanced breast cancer patients	oral, dose not given, not drug-related		serious adverse event incidence	0.3%
C[C@]1(CO)Cc2ncn(-c3ccc(C#N)c(Cl)c3)c2C(=O)O1			human	all doses, European multiple ascending dose		any TEAE	40%

Structure (SMILES)	tested on	assay	system	conditions	scale	measurement	result
CO[C@H]1C[C@@H]2CC[C@@H](C)[C@@](O)(O2)C(=O)C(=O)N2CCCC[C@H]2C(=O)O[C@H]([C@H](C)C[C@@H]2CC[C@@H](OC(=O)NCCOCCOCCOCCOCCOCCOCCOCCOCCC(=O)N3CCc4cc(Cn5nc(-c6ccc7oc(N)nc7c6)c6c(N)ncnc65)ccc4C3)[C@H](OC)C2)C[C@@H](O)[C@H](C)/C=C(\C)[C@@H](O)[C@@H](OC)C(=O)[C@H](C)C[C@H](C)/C=C/C=C/C=C/1C			patients with advanced solid tumours	intravenous, dose not given, any grade		Pneumonia AE leading to dose reduction	1.8%
C=C(CN(C(=O)c1c(C(F)F)nn(C)c1F)C1CC1)c1ccc(Cl)cc1Cl		static acute toxicity test	zebrafish (Brachydanio rerio)	0.833 mg a.i./L, 24 h		mortality	0%
CN1CC[C@@H](c2c(O)cc(O)c3c(=O)cc(-c4ccc(C(F)(F)F)cc4Cl)oc23)[C@@H]1CO		refers to: Fatigue	B-cell malignancies	oral, 150 mg, intermittent dosing		patients with adverse event	0%
COS(C)(=O)=O			female Hsd:ICR (CD-1) mouse, bone marrow	oral, 40 mg/kg/day, positive control		PCE to total erythrocytes ratio	0.447
CC(C)C[C@H](NC(=O)[C@H](CCCCN)NC(=O)OCC1c2ccccc2-c2ccccc21)C(=O)N[C@H](C(=O)N[C@@H](Cc1ccccc1)C(=O)N[C@@H](Cc1ccccc1)C(=O)N[C@@H](CCCCN)C(=O)NCC(=O)N[C@@H](Cc1ccccc1)C(=O)N[C@@H](C)C(=O)N[C@@H](Cc1c[nH]c2ccccc12)C(=O)N[C@@H](CC(N)=O)C(=O)N[C@H](C(=O)N[C@H]1CSSC[C@@H](C(=O)N[C@@H](Cc2c[nH]cn2)C(=O)N[C@@H](CCCNC(=N)N)C(=O)N[C@@H](CCCNC(=N)N)C(=O)N[C@@H](C)C(=O)N[C@@H](CC(N)=O)C(N)=O)NC(=O)[C@H](C(C)C)NC(=O)[C@H](CCCNC(=N)N)NC(=O)[C@H](C(C)C)NC(=O)CNC(=O)[C@H](CC(N)=O)NC(=O)[C@H](CCCNC(=N)N)NC(=O)[C@H](Cc2ccc(O)cc2)NC(=O)[C@H](C(C)C)NC1=O)C(C)C)C(C)C			ICR mice, blood	intraperitoneal, 10 mg/kg, day 5		platelet distribution width	15.35 ± 0.06%
COc1cc2c(Oc3ccc4[nH]c(C)cc4c3F)ccnc2cc1OCC1(N)CC1			paediatric recurrent refractory sarcoma	12 mg		grade 1 or 2 Hypothyroidism	54.5%
CN1CCC(OC(=O)C(Oc2ccc(Cl)cc2)Oc2ccc(Cl)cc2)CC1	African green monkey cells			5 days		CC50	38 µM
[O-][S+]1CCc2nc(N3CCC(c4ncc(Cl)cn4)CC3)nc(NC3(CO)CCC3)c21 (centres unmarked)		refers to: upper abdominal pain	healthy male humans	36 mg single dose		adverse event incidence	16.7%
C#C[C@]1(O)CC[C@H]2[C@@H]3CCc4cc(OC5CCCC5)ccc4[C@H]3CC[C@@]21C	African green monkey cells			5 days		CC50	7.59 µM
CC[C@H](C)[C@@H]1NC(=O)[C@@H]2CCCN2C(=O)[C@H](CC(C)C)NC(=O)[C@H](CC(C)C)NC(=O)CNC(=O)[C@@H](NC(=O)[C@@H](NC(=O)[C@H](CC(=O)O)NC(=O)CNC(=O)[C@@H](NC(=O)[C@H](C)NC(=O)CNC(=O)[C@H](CCCCN)NC(=O)[C@H](CC(C)C)NC(=O)[C@H](CC(C)C)NC(=O)[C@H](CCCCN)NC(=O)CNC(=O)[C@@H](NC(=O)[C@@H](N)CC(C)C)C(C)C)C(C)C)C(C)C)CSSC[C@@H](C(=O)O)NC1=O		RNA-seq, refers to: Fcgr4 mRNA	mouse traumatic brain injury, frontal cortex and hippocampus	dose not given	reference: TBI plus compound vs TBI	log2 fold change	-2.46
O=c1ccc2cc3ccoc3cc2o1		post-procedure stability	rat plasma	1000 ng/mL, 1 h, room temperature		accuracy	81.8%
CN(C(=O)n1cnc(-c2ccc[n+]([O-])c2)c1)C1CCCCC1			Wistar rat, cerebellum	oral, 10 mg/kg/day, 48 h, repeated 5 days		concentration	17.8 ± 0.8 ng/g
C[C@H]1CN(c2n[nH]c3nc(N[C@H]4CC[C@H](NS(=O)(=O)CCC(F)(F)F)CC4)ncc23)CCO1	DYNC1H1 (Homo sapiens, UniProt Q14204)	inhibitor, Kinobeads competition profiling		0.16 µM	reference: vehicle	relative abundance	1.02
O=C(c1ccc(F)c(F)c1Nc1ccc(I)cc1F)N1CC(O)([C@@H]2CCCCN2)C1			patients aged 2 to 6 years	oral, dose not given		AE leading treatment withdrawal	0%
CC1CC(c2ccc(O)cc2)=NN1c1ccc(C#N)c(Cl)c1 (centres unmarked)			PBS	90 min		kinetic solubility	81 µM (≈ 25.3 µg/mL)
CC[C@H](C)[C@H](NC(=O)[C@H](Cc1ccccc1)NC(=O)[C@H](CCC(=O)O)NC(=O)[C@H](CCCNC(=N)N)NC(=O)[C@H](C)NC(=O)[C@H](C)NC(=O)[C@H](CCC(N)=O)NC(=O)[C@H](CCC(=O)O)NC(=O)[C@H](CCC(=O)O)NC(=O)[C@H](CC(C)C)NC(=O)[C@H](Cc1ccc(O)cc1)NC(=O)[C@H](CO)NC(=O)[C@H](CO)NC(=O)[C@@H](NC(=O)[C@H](CC(=O)O)NC(=O)[C@H](CO)NC(=O)[C@@H](NC(=O)[C@H](Cc1ccccc1)NC(=O)[C@@H](NC(=O)CNC(=O)[C@H](CCC(=O)O)NC(=O)[C@H](C)NC(=O)CCc1c[nH]cn1)[C@@H](C)O)[C@@H](C)O)C(C)C)C(=O)N[C@@H](C)C(=O)N[C@@H](Cc1c[nH]c2ccccc12)C(=O)N[C@@H](CC(C)C)C(=O)N[C@H](C(=O)N[C@@H](CCCNC(=N)N)C(=O)NCC(=O)N[C@@H](CCCNC(=N)N)C(=O)N[C@@H](CCCCNC(=O)COCCOCCNC(=O)COCCOCCNC(=O)CC[C@H](NC(=O)CCCCCCCCCCCCCCCCC(=O)O)C(=O)O)C(=O)NCC(=O)NCC(=O)N[C@@H](CO)C(=O)N[C@@H](CCCCNc1c(NCCCCCN(O)C(=O)CCC(=O)NCCCCCN(O)C(=O)CCC(=O)NCCCCCN(O)C(C)=O)c(=O)c1=O)C(=O)O)C(C)C [zirconium-89 labelled]			rat, pancreas	iv, 3 nmol/kg, 24 h, ex vivo		tissue uptake	0.2 %ID/g
N[C@@H]1c2ccccc2OC12CCN(c1cnc3c(N4CCCc5ncccc54)n[nH]c3n1)CC2			advanced solid tumour patients	oral, 75 mg once daily		serious TEAE grade ≥3	42.9%
CCc1ccc(CC/C=C/c2ccc3c(c2)C(=O)CC3)cc1			Sprague-Dawley rat, female	oral, 450 mg/kg/day, 14 days		Platelet percentage	1.06%
Cn1cncc1-c1c(F)cncc1NC(=O)c1c(N)nn2cc(F)cnc12			human patients	oral, 180 mg once daily, 2 weeks on 1 week off		patients grade ≥3 Hyperkalemia	0%

Some of these lines once more:
Structure (SMILES)	tested on	assay	system	conditions	scale	measurement	result
CN(C)C(=O)c1cc2cnc(Nc3ccc(N4CCNCC4)cn3)nc2n1C1CCCC1		refers to: acute respiratory failure	HR+/HER2− advanced breast cancer patients	oral, dose not given, not drug-related		serious adverse event incidence	0.3%
N#C[C@@]1(n2ccc(N)nc2=O)O[C@H](CO)[C@@H](O)[C@H]1O			CD-1 mouse, lung	oral, 30 mg/kg, 7 h		concentration	1620 ng/g and 731 ng/g and 882 ng/g
